Experimental data pooled from the literature.
Protocols differ between the studies behind these lines. Several values in a cell are separate wells, animals, samples, runs or records. ± marks the error that the study gave.
U2AF2: U2AF2 148-342 (Homo sapiens, UniProt P26368)
Sequence of UniProt P26368 (whole entry, looked up): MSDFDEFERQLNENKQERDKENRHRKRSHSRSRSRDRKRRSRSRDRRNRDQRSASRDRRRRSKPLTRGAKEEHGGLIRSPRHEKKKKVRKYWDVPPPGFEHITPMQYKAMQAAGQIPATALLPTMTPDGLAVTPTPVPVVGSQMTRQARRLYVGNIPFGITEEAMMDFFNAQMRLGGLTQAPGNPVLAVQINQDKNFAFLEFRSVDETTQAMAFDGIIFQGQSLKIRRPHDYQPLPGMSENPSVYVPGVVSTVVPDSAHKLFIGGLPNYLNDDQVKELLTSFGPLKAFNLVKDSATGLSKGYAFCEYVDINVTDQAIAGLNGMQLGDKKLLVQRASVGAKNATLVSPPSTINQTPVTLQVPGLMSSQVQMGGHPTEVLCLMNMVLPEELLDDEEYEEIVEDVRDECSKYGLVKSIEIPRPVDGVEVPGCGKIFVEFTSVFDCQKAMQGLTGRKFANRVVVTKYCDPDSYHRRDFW
B1: TPT1 (Homo sapiens, UniProt P13693); sequence looked up; chain MIIYRDLISHDEMFSDIYKIREIADGLCLEVEGKMVSRTEGNIDDSLIGGNASAEGPEGEGTESTVITGVDIVMNHHLQETSFTKEAYKKYIKDYMKSIKGKLEEQRPERVKPFMTGAAEQIKHILANFKNYQFFIGENMNPDGMVALLDYREDGVTPYMIFFKDGLEMEKC
B2: BAK1 22-186 (Homo sapiens, UniProt Q16611); sequence looked up; chain ASEEQVAQDTEEVFRSYVFYRHQQEQEAEGVAAPADPEMVTLPLQPSSTMGQVGRQLAIIGDDINRRYDSEFQTMLQHLQPTAENAYEYFTKIATSLFESGINWGRVVALLGFGYRLALHVYQHGLTGFLGQVTRFVVDFMLHHCIARWIAQRGGWVAALNLGNG
B3: trfB Q53A (Escherichia coli, UniProt P03052); sequence looked up; chain MKKRLTESQFQEAIQGLEVGQQTIEIARGVLVDGKPQATFATSLGLTRGAVSAAVHRVWAAFEDKNLPEGYARVTAVLPEHQAYIVRKWEADAKKKQETKR
B4: PHO1 (UniProt Q8S403); sequence looked up; chain MVKFSKELEAQLIPEWKEAFVNYCLLKKQIKKIKTSRKPKPASHYPIGHHSDFGRSLFDPVRKLARTFSDKLFSNSEKPEILQVRRRRGSSETGDDVDEIYQTELVQLFSEEDEVKVFFARLDEELNKVNQFHKPKETEFLERGEILKKQLETLAELKQILSDRKKRNLSGSNSHRSFSSSVRNSDFSAGSPGELSEIQSETSRTDEIIEALERNGVSFINSATRSKTKGGKPKMSLRVDIPDAVAGAEGGIARSIATAMSVLWEELVNNPRSDFTNWKNIQSAEKKIRSAFVELYRGLGLLKTYSSLNMIAFTKIMKKFDKVAGQNASSTYLKVVKRSQFISSDKVVRLMDEVESIFTKHFANNDRKKAMKFLKPHQTKDSHMVTFFVGLFTGCFISLFVIYIILAHLSGIFTSSDQVSYLETVYPVFSVFALLSLHMFMYGCNLYMWKNTRINYTFIFEFAPNTALRYRDAFLMGTTFMTSVVAAMVIHLILRASGFSASQVDTIPGILLLIFICVLICPFNTFYRPTRFCFIRILRKIVCSPFYKVLMVDFFMGDQLTSQIPLLRHLETTGCYFLAQSFKTHEYNTCKNGRYYREFAYLISFLPYFWRAMQCVRRWWDESNPDHLINMGKYVSAMVAAGVRITYARENNDLWLTMVLVSSVVATIYQLYWDFVKDWGLLNPKSKNPWLRDNLVLRNKNFYYLSIALNLVLRVAWIETIMRFRVSPVQSHLLDFFLASLEVIRRGHWNFYRVENEHLNNVGQFRAVKTVPLPFLDRDSDG
B5: Tomm70 S94E (Mus musculus, UniProt Q9CZW5); sequence looked up; chain MAASKPIEAAMAAAAAPGSGNGVGGGGGTAGPGSGAGTLPRWHVALAIGAPLLLGAGAMYLWSRRRRRREAGGRGDASGLKRNSERKTPEGRAEPALGSGHHDGSGDSLEMSSLDRAQAAKNKGNKYFKAGKYEQAIQCYTEAISLCPTEKNVDLSTFYQNRAAAFEQLQKWKEVAQDCTKAVELNPKYVKALFRRAKAHEKLDNKKECLEDVTAVCILEGFQNEQSMLLADKVLKLLGKENAKEKYKNREPLMPSPQFIKSYFSSFTDDIISQPMLKGEKSDEDKDKEGEALEVKENSGYLKAKQYMEEENYDKIISECSKEIDAQGKYMAEALLLRATFYLLIGSANAAKPDLDKVISLKEANVKLRANALIKRGTMCMQQQQPMLSTQDFNMAAEIDPMNSDVYHHRGQLKILLDLVEEAVADFDACIRLRPKFALAQAQKCFALYRQAYTANNSSQVQAAMKGFEEIIKKFPRCAEGYALYAQALTDQQQFGKADEMYDKCIDLEPDNATTYVHKGLLQLQWKQDLDKGLELISKAIEIDNKCDFAYETMGTIEVQRGNMEKAIDMFNKAINLAKSEMEMAHLYSLCDAAHAQTEVAKKYGLKPPTL
B6: cfbA 1-143 (Methanocaldococcus jannaschii, UniProt Q58380); chain MEALVLVGHGSRLPYSKELLVKLAEKVKERNLFPIVEIGLMEFSEPTIPQAVKKAIEQGAKRIIVVPVFLAHGIHTTRDIPRLLGLIEDNHEHHHEHSHHHHHHHHHEHEKLEIPEDVEIIYREPIGADDRIVDIIIDRAFGR
B7: ADAR1 127-end 127-1226 K999N (human, UniProt P55265); sequence looked up; chain SSHFQELSIYQDQEQRILKFLEELGEGKATTAHDLSGKLGTPKKEINRVLYSLAKKGKLQKEAGTPPLWKIAVSTQAWNQHSGVVRPDGHSQGAPNSDPSLEPEDRNSTSVSEDLLEPFIAVSAQAWNQHSGVVRPDSHSQGSPNSDPGLEPEDSNSTSALEDPLEFLDMAEIKEKICDYLFNVSDSSALNLAKNIGLTKARDINAVLIDMERQGDVYRQGTTPPIWHLTDKKRERMQIKRNTNSVPETAPAAIPETKRNAEFLTCNIPTSNASNNMVTTEKVENGQEPVIKLENRQEARPEPARLKPPVHYNGPSKAGYVDFENGQWATDDIPDDLNSIRAAPGEFRAIMEMPSFYSHGLPRCSPYKKLTECQLKNPISGLLEYAQFASQTCEFNMIEQSGPPHEPRFKFQVVINGREFPPAEAGSKKVAKQDAAMKAMTILLEEAKAKDSGKSEESSHYSTEKESEKTAESQTPTPSATSFFSGKSPVTTLLECMHKLGNSCEFRLLSKEGPAHEPKFQYCVAVGAQTFPSVSAPSKKVAKQMAAEEAMKALHGEATNSMASDNQPEGMISESLDNLESMMPNKVRKIGELVRYLNTNPVGGLLEYARSHGFAAEFKLVDQSGPPHEPKFVYQAKVGGRWFPAVCAHSKKQGKQEAADAALRVLIGENEKAERMGFTEVTPVTGASLRRTMLLLSRSPEAQPKTLPLTGSTFHDQIAMLSHRCFNTLTNSFQPSLLGRKILAAIIMKKDSEDMGVVVSLGTGNRCVKGDSLSLKGETVNDCHAEIISRRGFIRFLYSELMKYNSQTAKDSIFEPAKGGEKLQIKKTVSFHLYISTAPCGDGALFDKSCSDRAMESTESRHYPVFENPKQGNLRTKVENGEGTIPVESSDIVPTWDGIRLGERLRTMSCSDKILRWNVLGLQGALLTHFLQPIYLKSVTLGYLFSQGHLTRAICCRVTRDGSAFEDGLRHPFIVNHPKVGRVSIYDSKRQSGKTKETSVNWCLADGYDLEILDGTRGTVDGPRNELSRVSKKNIFLLFKKLCSFRYRRDLLRLSYGEAKKAARDYETAKNYFKKGLKDMGYGNWISKPQEEKNFYLCPV
B8: rga8 1-420 K62A/K64A/K65A/K141A/K142A/K144A (Schizosaccharomyces pombe, UniProt Q09697); sequence looked up; chain MISSFSNGFWSKDYATGVKKLFDCLDNGVEENEQVKNLLKLYKEANEEFGEKLQEITKECLAGAAPENTEDGATSNKAFEGLRSEIANQGKQHIRIAKDLETLIIAPFSKMSIDHSQKLQTSQQVLTNQIKSYEKKYYTLAATASAYYNKCRNLEDYEEESKESNETTSEAITDLTTVSSPQQQSLLENDDDLIQLGFMEFRPEELKEVLAQVLQEIPLQDYRVPILGTYPNTCSGNIIVSWLQENLPVPTLVAAEAFGQDLIAQGFLRHMGVGGSFVNSTNFHYQWKDKAFQFAGLNSVDSLVENAKALPLVGEYLSDYISHRKLYSSETQSQRLKREVLDANKIYSESVVDLDKCRTLVEETIADHLQFLQKCETDRVLYYKDFFMDLSTIISNFLPSMKLLADQIVVYQEIIQPESD
B9: ddrC 1-98 (Deinococcus radiodurans, UniProt Q9RYE6); sequence looked up; chain MKNAPLTLNFGSVRLPVSADGLLHAPTAQQQLGLTQSWEAALVEHGLPETYRDFGAGPEAAVSVPDFVALAFALDTPEARRWQKRARELLARAMQGDV
B10: IFNG 24-156 (Homo sapiens); chain MQDPYVKEAENLKKYFNAGHSDVADNGTLFLGILKNWKEESDRKIMQSQIVSFYFKLFKNFKDDQSIQKSVETIKEDMNVKFFNSNKKKRDDFEKLTNYSVTDLNVQRKAIHELIQVMAELSPAAKTGKRKRSQAAA
B11: human aldolase A; sequence looked up; chain PYQYPALTPEQKKELSDIAHRIVAPGKGILAADESTGSIAKRLQSIGTENTEENRRFYRQLLLTADDRVNPCIGGVILFHETLYQKADDGRPFPQVIKSKGGVVGIKVDKGVVPLAGTNGETTTQGLDGLSERCAQYKKDGADFAKWRCVLKIGEHTPSALAIMENANVLARYASICQQNGIVPIVEPEILPDGDHDLKRCQYVTEKVLAAVYKALSDHHIYLEGTLLKPNMVTPGHACTQKFSHEEIAMATVTALRRTVPPAVTGITFLSGGQSEEEASINLNAINKCPLLKPWALTFSYGRALQASALKAWGGKKENLKAAQEEYVKRALANSLACQGKYTPSGQAGAAASESLFVSNHAY
B12: tryptophanyl-tRNA synthetase residues 206-593 (Cryptosporidium parvum, UniProt F0X4V6); chain GPGSMPWEVKADNAYGIDYNKLIDKFGCKLITKDMIERMERLTGQKAHHFFRRNIFLSHRDFEKILDVYEKGELFYLYTGRGPSSESLHVGHLVPFLFTKYLQDTFKVPLVIQLTDDEKFIFKSNLTLEETHNYAYENMKDIIACGFDPELTFIFTNLEYIAELYPDILRIEKKISCSQIKSIFGFKDSCNVGKFAFPAVQAAPAFSSSFPHIFGGRTDIHCLVPHAIDQDPYFRMVRDVAPRLGYLKPSSIHSIFLPSLQGSQTKMSASVQNSSIFVNDNEESIRNKIMKYAFSGGQATEEEQRRLGANLDVDVSWQYLRFLMEDDEKLEEIGKKYSSGEMLSGEIKSILVQELVKLTKNHQKNREAINDDVIAKFTNKSREQLLKLFINKK
B13: VANGL1 (Homo sapiens, UniProt Q8TAA9-1); sequence looked up; chain MDTESTYSGYSYYSSHSKKSHRQGERTRERHKSPRNKDGRGSEKSVTIQPPTGEPLLGNDSTRTEEVQDDNWGETTTAITGTSEHSISQEDIARISKDMEDSVGLDCKRYLGLTVASFLGLLVFLTPIAFILLPPILWRDELEPCGTICEGLFISMAFKLLILLIGTWALFFRKRRADMPRVFVFRALLLVLIFLFVVSYWLFYGVRILDSRDRNYQGIVQYAVSLVDALLFIHYLAIVLLELRQLQPMFTLQVVRSTDGESRFYSLGHLSIQRAALVVLENYYKDFTIYNPNLLTASKFRAAKHMAGLKVYNVDGPSNNATGQSRAMIAAAARRRDSSHNELYYEEAEHERRVKKRKARLVVAVEEAFIHIQRLQAEEQQKAPGEVMDPREAAQAIFPSMARALQKYLRITRQQNYHSMESILQHLAFCITNGMTPKAFLERYLSAGPTLQYDKDRWLSTQWRLVSDEAVTNGLRDGIVFVLKCLDFSLVVNVKKIPFIILSEEFIDPKSHKFVLRLQSETSV

Molecule | target or system | test | test system | setting | how to read | measurement | value
B1 (TPT1) | itself | western blot, non-reducing SDS-PAGE | BEAS-2B, culture supernatant | not purified |  | subunits per oligomer | 6 and 2
B2 (BAK1 22-186) | itself | SEC-MALS |  |  |  | subunits per oligomer | 2
B3 (trfB Q53A) | itself | SEC |  |  |  | subunits per oligomer | 2
B4 (PHO1) | itself | cryo-EM |  |  |  | subunits per oligomer | 2
B5 (Tomm70 S94E) | itself | native PAGE |  |  |  | subunits per oligomer | 2
B6 (cfbA 1-143) | itself | SEC |  |  |  | subunits per oligomer | 2
UACUUUUAC (ssRNA) | U2AF2 | sequencing of bound RNA | RNA | motif only |  | Kd | 1.26 µM
B7 (ADAR1 127-end 127-1226 K999N) | itself | SEC |  |  |  | subunits per oligomer | 2
B8 | itself | cross-linking |  |  |  | subunits per oligomer | 2
B9 (ddrC 1-98) | itself | SEC-MALS |  |  |  | subunits per oligomer | 1.84 ± 0.11 n-mer
B10 (IFNG 24-156) | itself | AUC |  |  |  | subunits per oligomer | 2
B11 (human aldolase A) | PP6C (human) | co-immunoprecipitation, IP-MS | CYB5R4 knockout cells | concentration not given | relative to: CYB5R4 knockout over parental | log2 fold change | 1.11
CUUUGCCUU (ssRNA) | U2AF2 | sequencing of bound RNA | RNA | motif only |  | Kd | 0.89 µM
B12 | itself | X-ray crystallography |  |  |  | subunits per oligomer | 2
human histone deacetylase 1 | CYB5R4 knockout human cells | PP4 interaction, 3xFLAG-PP4C IP-MS |  | concentration not given | relative to: CYB5R4 KO over parental | log2 fold change | 0.39
B13 (VANGL1) | itself | cryo-EM structure |  | D3 symmetry imposed |  | subunits per oligomer | 6

For quick reference, copied from above:
Molecule | target or system | test | test system | setting | how to read | measurement | value
B9 (ddrC 1-98) | itself | SEC-MALS |  |  |  | subunits per oligomer | 1.84 ± 0.11 n-mer
